Measurements pooled from the literature.
Parts stem from different laboratories: compare values within a part only. “And” joins repeats or separate records; there may be more than shown.
Chain of UniProt Q92630 (whole entry, looked up): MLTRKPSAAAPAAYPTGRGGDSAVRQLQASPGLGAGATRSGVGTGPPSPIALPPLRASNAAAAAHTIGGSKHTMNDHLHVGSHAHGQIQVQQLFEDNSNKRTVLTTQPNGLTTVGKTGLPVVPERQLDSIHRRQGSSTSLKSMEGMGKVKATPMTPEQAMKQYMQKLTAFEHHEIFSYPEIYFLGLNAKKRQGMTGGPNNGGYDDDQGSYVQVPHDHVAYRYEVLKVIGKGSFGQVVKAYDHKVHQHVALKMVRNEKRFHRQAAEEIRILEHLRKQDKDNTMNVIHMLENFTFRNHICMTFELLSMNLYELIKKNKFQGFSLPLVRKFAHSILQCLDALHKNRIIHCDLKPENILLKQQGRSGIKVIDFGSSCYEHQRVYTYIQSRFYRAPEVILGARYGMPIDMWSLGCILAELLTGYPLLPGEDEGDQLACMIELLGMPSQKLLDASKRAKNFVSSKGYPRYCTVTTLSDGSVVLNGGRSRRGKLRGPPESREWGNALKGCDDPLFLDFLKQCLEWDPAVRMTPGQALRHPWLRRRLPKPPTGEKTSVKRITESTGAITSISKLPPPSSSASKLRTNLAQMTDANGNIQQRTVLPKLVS
Chain of UniProt P04049 (whole entry, looked up): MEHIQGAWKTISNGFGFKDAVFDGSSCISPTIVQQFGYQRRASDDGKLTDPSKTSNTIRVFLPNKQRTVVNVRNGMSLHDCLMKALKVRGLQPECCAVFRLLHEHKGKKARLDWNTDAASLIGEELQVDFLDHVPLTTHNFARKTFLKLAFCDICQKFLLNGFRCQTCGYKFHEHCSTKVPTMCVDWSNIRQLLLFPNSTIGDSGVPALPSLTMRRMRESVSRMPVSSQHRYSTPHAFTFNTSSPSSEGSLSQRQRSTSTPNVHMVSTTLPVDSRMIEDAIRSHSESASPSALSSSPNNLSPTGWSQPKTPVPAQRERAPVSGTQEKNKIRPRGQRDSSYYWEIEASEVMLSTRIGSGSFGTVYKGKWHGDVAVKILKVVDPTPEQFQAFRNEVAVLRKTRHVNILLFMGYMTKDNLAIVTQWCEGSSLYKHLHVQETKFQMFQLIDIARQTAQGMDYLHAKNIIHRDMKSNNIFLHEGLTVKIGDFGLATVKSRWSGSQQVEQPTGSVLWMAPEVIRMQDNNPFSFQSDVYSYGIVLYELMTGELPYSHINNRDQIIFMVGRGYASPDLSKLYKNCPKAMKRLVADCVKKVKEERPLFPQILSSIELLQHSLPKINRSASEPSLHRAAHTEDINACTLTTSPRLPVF
Chain of UniProt O43353 (whole entry, looked up): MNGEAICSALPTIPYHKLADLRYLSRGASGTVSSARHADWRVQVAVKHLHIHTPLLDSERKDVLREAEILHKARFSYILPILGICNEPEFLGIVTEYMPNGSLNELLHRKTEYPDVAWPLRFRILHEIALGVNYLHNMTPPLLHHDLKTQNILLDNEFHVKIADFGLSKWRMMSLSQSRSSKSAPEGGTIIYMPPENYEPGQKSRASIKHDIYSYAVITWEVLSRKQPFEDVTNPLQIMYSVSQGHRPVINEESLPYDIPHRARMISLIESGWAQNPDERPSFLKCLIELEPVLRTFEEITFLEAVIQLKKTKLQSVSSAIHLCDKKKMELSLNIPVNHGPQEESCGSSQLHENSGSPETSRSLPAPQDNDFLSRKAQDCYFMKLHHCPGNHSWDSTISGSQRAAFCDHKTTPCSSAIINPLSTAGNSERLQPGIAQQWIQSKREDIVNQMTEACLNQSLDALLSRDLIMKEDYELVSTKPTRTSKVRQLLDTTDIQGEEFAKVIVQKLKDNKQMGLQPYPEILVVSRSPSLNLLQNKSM
Chain of UniProt P21802 (whole entry, looked up): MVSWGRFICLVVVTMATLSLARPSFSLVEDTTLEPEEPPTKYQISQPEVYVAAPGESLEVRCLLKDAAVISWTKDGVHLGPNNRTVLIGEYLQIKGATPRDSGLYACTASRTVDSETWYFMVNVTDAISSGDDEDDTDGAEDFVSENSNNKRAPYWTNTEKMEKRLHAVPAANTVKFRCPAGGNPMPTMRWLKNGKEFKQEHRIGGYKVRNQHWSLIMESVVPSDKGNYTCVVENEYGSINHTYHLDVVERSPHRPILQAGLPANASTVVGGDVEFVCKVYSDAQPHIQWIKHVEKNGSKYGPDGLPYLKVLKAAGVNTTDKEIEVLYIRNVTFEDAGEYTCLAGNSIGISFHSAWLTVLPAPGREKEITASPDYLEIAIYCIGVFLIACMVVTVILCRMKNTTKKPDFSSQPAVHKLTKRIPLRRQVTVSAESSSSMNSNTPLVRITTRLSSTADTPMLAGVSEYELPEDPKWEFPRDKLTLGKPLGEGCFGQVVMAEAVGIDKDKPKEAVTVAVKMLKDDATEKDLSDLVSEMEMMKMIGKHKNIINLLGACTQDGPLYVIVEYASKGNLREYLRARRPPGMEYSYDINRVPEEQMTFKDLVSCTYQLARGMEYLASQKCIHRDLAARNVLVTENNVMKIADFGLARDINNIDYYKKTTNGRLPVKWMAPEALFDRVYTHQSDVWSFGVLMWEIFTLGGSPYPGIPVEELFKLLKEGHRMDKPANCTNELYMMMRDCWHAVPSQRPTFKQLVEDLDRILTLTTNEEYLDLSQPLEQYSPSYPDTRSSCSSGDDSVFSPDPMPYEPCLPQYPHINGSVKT
Chain of UniProt Q6XUX3 (whole entry, looked up): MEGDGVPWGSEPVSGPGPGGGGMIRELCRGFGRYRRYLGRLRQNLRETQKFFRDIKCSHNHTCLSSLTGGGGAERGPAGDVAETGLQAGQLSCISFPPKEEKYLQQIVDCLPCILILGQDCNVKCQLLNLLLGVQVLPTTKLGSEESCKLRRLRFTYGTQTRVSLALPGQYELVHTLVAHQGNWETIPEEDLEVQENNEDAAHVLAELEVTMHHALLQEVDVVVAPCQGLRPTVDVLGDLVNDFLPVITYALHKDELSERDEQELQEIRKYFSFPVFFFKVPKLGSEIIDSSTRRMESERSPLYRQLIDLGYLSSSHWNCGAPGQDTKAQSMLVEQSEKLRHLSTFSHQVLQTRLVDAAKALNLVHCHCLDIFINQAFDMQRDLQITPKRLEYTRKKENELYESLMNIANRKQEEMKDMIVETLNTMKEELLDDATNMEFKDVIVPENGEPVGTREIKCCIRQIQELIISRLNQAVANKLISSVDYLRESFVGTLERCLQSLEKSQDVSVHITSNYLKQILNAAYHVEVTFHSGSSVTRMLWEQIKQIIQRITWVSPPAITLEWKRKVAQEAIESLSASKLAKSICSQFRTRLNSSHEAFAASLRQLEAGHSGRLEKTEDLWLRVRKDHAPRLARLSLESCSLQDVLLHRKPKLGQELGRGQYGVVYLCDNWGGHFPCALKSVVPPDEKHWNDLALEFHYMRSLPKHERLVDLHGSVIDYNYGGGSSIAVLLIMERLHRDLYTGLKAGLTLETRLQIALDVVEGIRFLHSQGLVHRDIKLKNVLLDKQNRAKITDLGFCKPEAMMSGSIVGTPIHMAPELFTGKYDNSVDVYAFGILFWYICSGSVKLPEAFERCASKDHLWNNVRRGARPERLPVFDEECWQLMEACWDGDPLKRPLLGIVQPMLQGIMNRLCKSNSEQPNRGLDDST
Chain of UniProt Q04771 (whole entry, looked up): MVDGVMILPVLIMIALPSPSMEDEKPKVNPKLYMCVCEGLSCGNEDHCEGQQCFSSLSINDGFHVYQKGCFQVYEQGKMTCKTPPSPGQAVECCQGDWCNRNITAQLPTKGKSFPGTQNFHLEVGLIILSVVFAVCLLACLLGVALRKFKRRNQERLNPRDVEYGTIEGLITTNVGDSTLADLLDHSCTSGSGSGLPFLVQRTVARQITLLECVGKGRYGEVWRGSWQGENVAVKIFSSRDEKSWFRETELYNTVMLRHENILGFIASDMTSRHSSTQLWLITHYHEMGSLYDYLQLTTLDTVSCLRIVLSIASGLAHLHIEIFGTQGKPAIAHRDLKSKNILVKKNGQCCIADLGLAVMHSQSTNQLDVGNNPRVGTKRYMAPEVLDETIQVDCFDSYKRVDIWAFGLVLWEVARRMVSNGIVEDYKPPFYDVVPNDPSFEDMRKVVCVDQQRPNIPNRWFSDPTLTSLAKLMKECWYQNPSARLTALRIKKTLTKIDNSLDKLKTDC

Sample 1
SMILES: N/C(=N\[N+](=O)[O-])N/N=C\c1ccc(-c2cccc([N+](=O)[O-])c2)o1
Read-out: enzyme activity
Action: inhibitor
Tested at: 0.5 µM
Baseline: control
Endpoint: remaining activity
ACVR1 (Homo sapiens, UniProt Q04771): 98%
PDGFRB (Homo sapiens, UniProt P09619): 129%
FGFR2 (Homo sapiens, UniProt P21802): 104%
DYRK2 (Homo sapiens, UniProt Q92630): 93.1%
MAP4K5 (Homo sapiens, UniProt Q9Y4K4): 109%
RAF1 (Homo sapiens, UniProt P04049): 98.1%
DSTYK (Homo sapiens, UniProt Q6XUX3): 95.4%
RIPK2 (Homo sapiens, UniProt O43353): 106%

Sample 2
Target: 5-hydroxytryptamine receptor 2C (HTR2C, Homo sapiens, UniProt P28335)
Chain of UniProt P28335 (whole entry, looked up): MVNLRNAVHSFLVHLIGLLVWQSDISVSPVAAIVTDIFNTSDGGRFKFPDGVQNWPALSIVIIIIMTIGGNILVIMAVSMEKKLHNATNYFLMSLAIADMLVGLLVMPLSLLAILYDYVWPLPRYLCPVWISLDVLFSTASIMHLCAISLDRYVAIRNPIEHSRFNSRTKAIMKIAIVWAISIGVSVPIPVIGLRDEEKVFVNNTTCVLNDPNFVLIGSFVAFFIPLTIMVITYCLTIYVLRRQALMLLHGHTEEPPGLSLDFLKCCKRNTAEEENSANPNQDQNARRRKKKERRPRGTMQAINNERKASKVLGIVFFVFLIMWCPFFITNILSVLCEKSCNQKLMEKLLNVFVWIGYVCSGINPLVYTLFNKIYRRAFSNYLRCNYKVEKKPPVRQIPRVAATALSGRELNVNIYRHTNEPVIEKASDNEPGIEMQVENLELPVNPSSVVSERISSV
Read-out: ligand displacement
Tested at: 10 µM
Endpoint: inhibition
CC(C)CC(=O)N1CCc2nc(-c3ccc(Br)cc3)nc(N(C)Cc3ccccc3)c2C1: -6.28%
c1ccc(N2CCN(Cc3nc4ccccc4[nH]3)CC2)nc1: 0.0823%
CNCc1ccccc1-c1csc([C@@H](C)Nc2nc(C)nc3cc(OC)c(OC)cc23)c1: 73.7%
COc1ccc2c(c1)O[C@@H](c1ccc(OC)c(OC)c1)C[C@H]2NC(=O)C1(c2ccc3c(c2)OC(F)(F)O3)CC1: -16.9%
Cc1c(N2CCNCC2)nc2ccc(Br)cc2c1C(=O)NC[C@H](CCC(=O)O)c1ccccc1Cl: 12.7%
O=C(NS(=O)(=O)c1ccc(NCC2CCOCC2)c([N+](=O)[O-])c1)c1ccc(N2CCN(Cc3ccc(C(F)(F)F)cc3-c3ccc(Cl)cc3)CC2)cc1Oc1cnc2[nH]ccc2c1: -0.17%
CO[C@@H](C)c1c(Nc2ccc([C@H](N(C)C(=O)C3CCS(=O)(=O)CC3)C(F)(F)F)cc2)cnc2cc(Cl)nn12: -4.22%
CN(C)C(=O)Cn1cc(-c2nc(C3(c4ccc(-c5cnc(N)nc5)cc4)CC3)no2)cn1: 9.74%
CN(C)CC#Cc1ccc(OCCCc2sc(N3CCc4cccc(C(=O)Nc5nc6ccccc6s5)c4C3)nc2C(=O)O)c(F)c1: 1.97%
Cc1c(C(=O)O)cc(-c2ccc(C3CCNCC3)cc2)c2ccc(-c3ccc(C(F)(F)F)cc3)cc12: -4.53%
O=C(Nc1ccc(Oc2ccc(F)cc2)cc1)N1CCc2ncccc2[C@H]1c1ccc(F)cc1: 68.4%
O=S(=O)(NC1CCC(c2cc(F)ccc2F)(S(=O)(=O)c2ccc(Cl)cc2)CC1)C(F)(F)F (stereo not shown): 12.3%
FC(F)(F)c1ccc2c(c1)nc(-c1cccnc1)n2C1CC1: 30.8%
CC(=O)C1=C(C)N(c2cccc(C(F)(F)F)c2)C(=O)N[C@H]1c1ccc(C#N)nc1: 29%
C[C@H](NC(=O)Nc1cc2[nH]ncc2c(CO)n1)c1ccccn1: 13.6%
Cc1ccccc1Oc1cc(-n2c(=O)cc(C(F)(F)F)[nH]c2=O)c2ccccc2c1Cl: 0.89%
CCCCN(CCCC)C(=O)CN1C[C@@H](c2cc(OC)c3c(c2)OCO3)[C@H](C(=O)O)[C@H]1CC(C)(C)CCC: 15.7%
Cc1cc(C)c(-n2ccn3nc(-c4cccnc4)cc23)cc1NC(=O)c1cc(C#N)cc(S(F)(F)(F)(F)F)c1: 34.5%
N#CN1CC[C@H](C(=O)Nc2nc3c(s2)CN(C(=O)CN=[N+]=[N-])CC3)C1: 18.2%
Cc1c[nH]c2nccc(Oc3c(F)cc(Nc4cc(Cl)nc(N)n4)cc3F)c12: 22.1%
CCc1ccccc1C(=O)Nc1n[nH]c2c(C)c(F)c(C3C(C#N)=C(C)N(C)C(C)=C3C#N)cc12: 20%
Cn1nc(C(=O)NCc2ccc(C(=O)O)cc2)cc1-c1ccc2[nH]ccc2c1: -9.67%
O=C(NCc1ncc(C(F)(F)F)cc1Cl)c1ccc2c(c1)C1(CCS(=O)(=O)CC1)[C@H](C1CC1)N2S(=O)(=O)c1ccc(F)cc1: 9.65%

Sample 3
Target: Calcium/calmodulin-dependent protein kinase type II subunit alpha (CAMK2A, Homo sapiens, UniProt Q9UQM7)
Chain of UniProt Q9UQM7 (whole entry, looked up): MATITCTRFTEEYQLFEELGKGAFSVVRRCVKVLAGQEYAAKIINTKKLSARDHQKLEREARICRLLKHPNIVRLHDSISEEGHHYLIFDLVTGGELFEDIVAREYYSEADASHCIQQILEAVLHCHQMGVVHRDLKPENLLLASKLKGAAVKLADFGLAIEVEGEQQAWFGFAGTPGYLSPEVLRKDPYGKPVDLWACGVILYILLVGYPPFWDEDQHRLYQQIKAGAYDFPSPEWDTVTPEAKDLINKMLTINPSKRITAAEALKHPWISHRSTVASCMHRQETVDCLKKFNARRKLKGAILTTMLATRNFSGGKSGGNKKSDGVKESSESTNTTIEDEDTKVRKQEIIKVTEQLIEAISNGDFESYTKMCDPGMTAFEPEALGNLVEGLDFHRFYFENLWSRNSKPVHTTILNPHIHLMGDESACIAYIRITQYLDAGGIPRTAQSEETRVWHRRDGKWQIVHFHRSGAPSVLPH
Read-out: enzyme activity
Action: inhibitor
Tested at: 10 µM
Endpoint: inhibition
CC(C)=CCc1c(O)cc2c(c1O)C(=O)C[C@@H](c1ccc(O)cc1)O2: -33%
C=CCc1ccc(OC)cc1: -79%
C/C=C(\C)C(=O)O[C@@H]1[C@@H](OC(C)=O)[C@]2(C)[C@H](C(C)=O)CC[C@@]23O[C@]32CC[C@H]3C[C@@H](O[C@H]4C[C@@H](OC)[C@H](O[C@@H]5O[C@H](C)[C@@H](O)[C@@H](OC)[C@H]5O)[C@@H](C)O4)CC[C@]3(C)[C@@H]12: 7%
COC1=CC(=O)O[C@@H](/C=C/c2ccc3c(c2)OCO3)C1: 21%
CO[C@H]1C[C@H](O[C@H]2CC[C@]3(C)[C@H]4CC[C@]5(C)[C@@H](C6=CC(=O)OC6)CC[C@]5(O)[C@@H]4CC[C@]3(O)C2)O[C@H](C)[C@H]1O[C@@H]1O[C@H](CO)[C@@H](O)[C@H](O)[C@H]1O: -14%
O=C(O)c1ccc(=O)[nH]c1: -15%
COc1cc(O)cc(/C=C/c2ccc(O)cc2)c1: -21%
CCCCOC(=O)c1ccccc1C(=O)OCCCC: 32%
CC(=O)OC(C)(C)/C=C/C(=O)[C@](C)(O)[C@H]1[C@H](O)C[C@@]2(C)[C@@H]3CC=C4[C@@H](C=C(O)C(=O)C4(C)C)[C@]3(C)C(=O)C[C@]12C: -25%

Sample 4
Structure (SMILES): CO[C@@H]1[C@@H](OC(N)=O)[C@@H](O)[C@H](Oc2ccc3c(O)c(NC(=O)c4ccc(O)c(CC=C(C)C)c4)c(=O)oc3c2C)OC1(C)C
Endpoint: clonogenic survival
RPE-1 BRCA2-/-; 150 µM, unit not given; baseline: untreated: 0.516 and 0.639 and 0.658
RPE-1 wild type; 25 µM: 94.7% and 108% and 103%
RPE-1 wild type; 75 µM, unit not given; baseline: untreated: 0.986 and 1.14 and 0.95
RPE-1 wild type; 50 µM, unit not given; baseline: untreated: 1.17 and 0.871 and 1.15
RPE-1 BRCA2-/-; 10 µM, unit not given; baseline: untreated: 0.872 and 0.837 and 0.966
CAPAN-1 BRCA2-mutant parental; 100 µM: 52.3% and 37.1%
CAPAN-1 (BRCA2-mutant); 200 µM: 20.8% and 16.6%
RPE-1 wild type; 50 µM: 67.9% and 88.4% and 69.6%
RPE-1 BRCA2-/-; 200 µM, unit not given; baseline: untreated: 0 and 0.0325 and 0.0107
